Measured values collected from several papers.
Each numbered part is a random draw from the data of one study; scales do not carry over between parts. Substitutions count along the parent as printed.

Series 1
Target: RNA binding protein fox-1 homolog 2, RRM domain, GST-SBP tag (RBFOX2, Homo sapiens, UniProt O43251-10, residues 100-194)
Technique: RNA Bind-n-Seq
Form: RNA
Sample: in vitro
Tested at: 365 nM
Notes: natural RNA segment, single round, ends assumed
Reference: no-protein control
Reading: higher = stronger binding
Measurement: RBNS enrichment (R)
All sequences stand within: GGGAGUUCUACAGUCCGACGAUC … UGGAAUUCUCGGGUGCCAA
Target sequence (chain): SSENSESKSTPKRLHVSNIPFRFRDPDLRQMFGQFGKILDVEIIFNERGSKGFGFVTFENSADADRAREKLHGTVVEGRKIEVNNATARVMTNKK
Oligonucleotide = GGCAUCCCAGCGCUGGACAACUUCCUGGACAAACUUAGGCAGCCUGAUACUGCCACAUGCUGCACAGUGCCCACCCAUCAGAAGACACCUUGAGACUGUCCCACAGUGCU; result = 1.13
Oligonucleotide = AUUUUUAUUUGACUCUGUGGCUCUAAGACUGCCUUGAACCGCCUGAGGCCUAUGCAUCUGAACAAGUGGGUCUCUCCCUUGAGCACCAGGAGUGGGUGCCAGCCGGCCCC; result = 0.48
Oligonucleotide = CUGCCUCCUUUUAAUUGUAUUCAUUUAGAUUUUGAUUUUCCAUGUUAAGAAGGUGAGGUCCAUGUUGGUGCCCUUCAGAGUAGAGAACCAUGUAAACAUUAGGAAUGAAC; result = 0.624
Oligonucleotide = GUGGCCCGUGCAGUCUGGGGUCCACAGCUCUUCCUCUCCUUCCUGUGCUCCCUGCCUUGCCUAGGAUGAAGCCUCCAGCGCUGCUCCCUGGCCCUGUUCCUGGCAUAUGG; result = 0.755
Oligonucleotide = UGUGGCGGGGGCCGGCUCGACAGCCACCGGGCCUUUGUGGUCAAAUACGCACCGGGCCAGGACCUGGAGCUGGGCUGCCACUAUGAUAAUGCCGAGCUCACCCUCAAUGU; result = 0.347
Oligonucleotide = CCUGUAGAGACCUGAAAAUCCCACUUGUUUACCCUAGAAUUCAGUGGCAUUUACUGCUUCUUGAUCUCUAACCACUUGAGUUGGGUCAAGAGGAUUCUGGGCGUGGCAAG; result = 0.214
Oligonucleotide = AUGGAUGGAUAAUAAGCCAAGUCUUGAAUCAUUCCUAUCAAGAUUAGUAUACAUGAGGAAGAGGUGGCAUGGGGGGAAGGGGCUCUGGGAGUUCAGAGCUGAGUACUUGU; result = 2.29
Oligonucleotide = UUUUGGCUUUAUGUCCAUUUUACCACUGUUUUUAUCCAAUAAACUAAGUCGGUAUUUUUUGUACCUUCGCCUUUCUAGGAAUGUUAAUUCUUGCUAGUUUCCUAUUUAUG; result = 0.43

Series 2
Target: ABI1, truncated, D143A, DHFR fusion (Arabidopsis thaliana)
Technique: DHFR PCA, deep sequencing
Sample: yeast
Notes: methotrexate growth selection, single substitutions
With: (+)-ABA 4.8 µM
Reference: wild-type fitted maximum
Reading: higher = stronger binding
Measurement: relative binding score
Starting sequence: PYL1, truncated, DHFR fusion (Arabidopsis thaliana); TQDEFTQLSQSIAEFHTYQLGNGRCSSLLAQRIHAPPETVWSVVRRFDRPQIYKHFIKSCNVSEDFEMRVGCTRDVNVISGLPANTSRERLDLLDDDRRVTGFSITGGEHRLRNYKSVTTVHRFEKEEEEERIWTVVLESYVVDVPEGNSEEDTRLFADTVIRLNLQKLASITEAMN; partner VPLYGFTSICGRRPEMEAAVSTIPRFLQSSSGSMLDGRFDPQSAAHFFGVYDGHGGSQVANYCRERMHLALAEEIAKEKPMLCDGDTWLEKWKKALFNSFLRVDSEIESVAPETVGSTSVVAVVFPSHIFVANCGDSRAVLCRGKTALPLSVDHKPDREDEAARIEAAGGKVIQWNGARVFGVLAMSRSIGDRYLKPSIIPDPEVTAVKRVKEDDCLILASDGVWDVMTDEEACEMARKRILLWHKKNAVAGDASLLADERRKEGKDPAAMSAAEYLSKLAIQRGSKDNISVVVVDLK
Substitution = R132P; result = 92.8%
Substitution = L29P; result = 13%
Substitution = N61F; result = 68.7%
Substitution = E4Q; result = 61.5%
Substitution = L138W; result = 0.112%
Substitution = T160W; result = 21.1%
Substitution = L94Q; result = 2.88%
Substitution = R45A; result = -1.13%
Substitution = T154F; result = -12.5%
Substitution = L164I; result = 60%
Substitution = R98D; result = 9.18%
Substitution = R45F; result = -1.14%
Substitution = R111Q; result = 3.53%
Substitution = R98S; result = 22.3%
Substitution = G102V; result = 0.867%
Substitution = H110N; result = 71.5%
Substitution = R90L; result = -7.3%
Substitution = M68H; result = 48.9%
Substitution = V161P; result = -3.26%
Substitution = F66V; result = 47.8%
Substitution = E38G; result = 38.7%
Substitution = V43T; result = 20.1%
Substitution = R32H; result = 67.3%

Series 3
Target: CCNB3, cyclin fold, Cln2 fusion (human)
Technique: yeast growth competition, sequencing
Sample: yeast
Notes: weak parent motif
Reference: not given
Reading: higher = stronger binding
Measurement: normalised enrichment score
Starting sequence: CDC25A docking peptide (human); PPHRRRLLFACSP
Substitution = L7N; result = -0.0239
Substitution = F9M; result = 0.218
Substitution = A10N; result = 0.211
Substitution = H3V; result = 1.16
Substitution = P1A; result = 0.124
Substitution = R4V; result = 1.21
Substitution = S12V; result = 0.423
Substitution = C11G; result = 0.0828
Substitution = R4E; result = 0.134
Substitution = S12W; result = 0.415
Substitution = H3S; result = 0.38
Substitution = P1M; result = 0.257
Substitution = S12A; result = 0.21
Substitution = P1S; result = 0.347
Substitution = R4S; result = -0.119
Substitution = A10G; result = 0.0107
Substitution = P13W; result = -0.065
Substitution = P2C; result = 0.472
Substitution = R4P; result = 0.476
Substitution = L7H; result = 0.00134
Substitution = A10S; result = 0.135
Substitution = R6Y; result = -0.162
Substitution = H3G; result = 0.439
Substitution = P2T; result = 0.447
Substitution = F9Y; result = 0.211

Series 4
Target: Interferon regulatory factor 3, full length, phosphomimetic (IRF3, Homo sapiens, UniProt Q14653, residues 1-427, S386D/S396D/S398D/S402D/T404D/S405D)
Sequence of UniProt Q14653 (whole entry, unmodified, looked up): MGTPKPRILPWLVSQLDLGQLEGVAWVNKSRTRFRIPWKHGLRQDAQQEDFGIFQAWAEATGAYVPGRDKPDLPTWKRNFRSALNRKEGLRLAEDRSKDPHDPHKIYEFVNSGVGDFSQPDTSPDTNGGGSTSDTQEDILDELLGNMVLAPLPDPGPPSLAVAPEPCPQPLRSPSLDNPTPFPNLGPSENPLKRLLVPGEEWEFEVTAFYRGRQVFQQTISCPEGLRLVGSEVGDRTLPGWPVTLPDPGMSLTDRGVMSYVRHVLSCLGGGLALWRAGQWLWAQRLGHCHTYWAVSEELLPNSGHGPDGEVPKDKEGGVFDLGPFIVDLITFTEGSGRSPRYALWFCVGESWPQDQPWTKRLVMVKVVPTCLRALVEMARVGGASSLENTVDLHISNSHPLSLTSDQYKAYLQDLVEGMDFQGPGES
Technique: protein-binding microarray
Form: double-stranded DNA, one strand shown
Sample: in vitro
Tested at: 2540 nM top
Notes: 60-bp whole probe
With: salmon DNA 0.4 mg/ml
Reference: random background probes
Reading: higher = stronger binding
Measurement: fitted relative affinity
All sequences stand within: GCCTAGCAC … GTCTTGATTCGCTTGACGCTGCTG
Oligonucleotide = TTTACTTTCTTTTTTTCTTTGTGCTAG; result = 6.81 z-score
Oligonucleotide = TTAAGTTTCCTTTCCCTTTAGTGCTAG; result = 11.8 z-score
Oligonucleotide = TTAGGTATAGGTCTCGGTTAGTGCTAG; result = -0.322 z-score
Oligonucleotide = TTAGATTTCAGTATCGACTAGTGCTAG; result = 2.06 z-score
Oligonucleotide = GACGGTTTCGGGTTTCCGGACGTGCTA; result = 6.09 z-score
Oligonucleotide = TTGGGTTTCCTTATCCTTTAGTGCTAG; result = 6.25 z-score
Oligonucleotide = TCACATATACACTGTGTATCTGTGCTA; result = 0.513 z-score
Oligonucleotide = AGTCGTGAGCCGCACAGTGGGTGCTAG; result = -0.9 z-score
Oligonucleotide = GACGATATCGGGTATCGAGAAGTGCTA; result = 0.138 z-score
Oligonucleotide = TTCACTCTCTGCTTGTGTCTGTGCTAG; result = 0.154 z-score
Oligonucleotide = TCAGCTCTGTGCTTTCCTACTGTGCTA; result = 0.545 z-score
Oligonucleotide = TCATTTACCCATCTCCAACTGTGCTAG; result = 3.46 z-score
Oligonucleotide = TCACATTAAATTTTAATACTGTGCTAG; result = 0.6 z-score
Oligonucleotide = CCATCTCAGCCTCCCCAAGGGTGCTAG; result = 1.97 z-score
Oligonucleotide = GACGATTTCGGGTTCCGAGACGTGCTA; result = 2.33 z-score
Oligonucleotide = TCACTTTTCTTTACTGAACTGTGCTAG; result = 3.24 z-score
Oligonucleotide = GACGGAATGGGTATCGGGACGTGCTAG; result = 0.099 z-score
Oligonucleotide = GTCGGTTTCGGTCTCGGGACGTGCTAG; result = 9.06 z-score
Oligonucleotide = TCATTTCCCTATTATATAACTGTGCTA; result = 4.25 z-score
